Measurements pooled from the literature.
Lines come from different studies, so protocols differ.
PIK3CA H1047Y: Phosphatidylinositol 4,5-bisphosphate 3-kinase catalytic subunit alpha isoform (PIK3CA, Homo sapiens, UniProt P42336, H1047Y)
PIK3CA: Phosphatidylinositol 4,5-bisphosphate 3-kinase catalytic subunit alpha isoform (PIK3CA, Homo sapiens, UniProt P42336)
PIK3CA E545A: Phosphatidylinositol 4,5-bisphosphate 3-kinase catalytic subunit alpha isoform (PIK3CA, Homo sapiens, UniProt P42336, E545A)

SMILES | target | read-out | method | tested at | reference | remaining binding
Nc1ncc2c(n1)-c1c([nH]c3ccc(C4=CCOCC4)cc13)CCC2 | PIK3CA H1047Y | binding | competition with immobilised ligand | 1 µM |  | 92%
CC(C)=CC1OC(C)(C)C2C=C3C(=O)C(Cl)=CC(O)C3C3C(O)C4OC4C(=O)C132 (stereo not drawn) | PIK3CA | cell-free assay | competition with immobilised ligand | 10 µM |  | 89%
Cc1cnc2nc1Nc1cccc(c1)COC/C=C/COCc1cc(ccc1OCCN1CCOCC1)N2 | PIK3CA H1047Y | binding |  | 0.1 µM |  | 65%
CNC(=O)C1CCN(c2cc(C)c(F)cc2NC(=O)c2ccc(-c3cc(O)ccc3C)c(C)c2)CC1 | Phosphatidylinositol 4,5-bisphosphate 3-kinase catalytic subunit alpha isoform (PIK3CA, Homo sapiens, UniProt P42336, E542K) | binding | competition with immobilised ligand | 1 µM |  | 100%
Cc1ccc(-c2c(/C=C(\C#N)C(=O)NC(C)C)n(CCCO)c3ncnc(N)c23)cc1 | Phosphatidylinositol 4,5-bisphosphate 3-kinase catalytic subunit alpha isoform (PIK3CA, Homo sapiens, UniProt P42336, Q546K) | cell-free assay | competition with immobilised ligand | 1 µM |  | 96%
C=CC(=O)N1CCc2ccc(-n3c(=O)ccc4cnc5ccc(-c6cnn(C)c6)cc5c43)cc21 | PIK3CA E545A |  | KINOMEscan | 1 µM | DMSO control | 47%
C=CC(=O)N1CCCC(n2c(=O)c3ncccc3n(Cc3ccc(Oc4ccccc4)cc3)c2=O)C1 (stereo not drawn) | Phosphatidylinositol 4,5-bisphosphate 3-kinase catalytic subunit alpha isoform (PIK3CA, Homo sapiens, UniProt P42336, C420R) | cell-free assay | competition with immobilised ligand | 1 µM |  | 93%
CNC1C[S+]2CC[S+]3CC[S+](C1)[Ru-4]321([N]=C=S)[n]2c3ccc(OC)cc3c3c4c(c5cc(F)c[n+]1c5c32)C(=O)NC4=O (stereo not drawn) | Phosphatidylinositol 4,5-bisphosphate 3-kinase catalytic subunit alpha isoform (PIK3CA, Homo sapiens, UniProt P42336, M1043I) |  | KinomeScan | 0.1 µM | untreated | 77%
CCN1CCN(Cc2ccc(C(=O)Nc3ccc(C)c(NCc4cnc5[nH]ccc5c4OC)c3)cc2C(F)(F)F)CC1 | PIK3CA E545A | binding | competition with immobilised ligand | 1 µM |  | 66%
CC(=O)c1cnc(N)nc1N1CC[C@H]1c1nn2ccc(Cl)c2c(=O)n1-c1ccccc1 | PIK3CA E545A | binding | competition with immobilised ligand | 10 µM |  | 46%
COc1cc(Nc2nccc(-c3cnn4nc(OC)ccc34)n2)cc(C(F)(F)F)c1 | PIK3CA H1047Y | binding |  | 1 µM |  | 81%
COc1c(Cl)cccc1Nc1c(-c2ccncc2C#C[C@@]2(C)CCCN2C(=O)/C=C/CN(C)C)[nH]c2c1C(=O)NCC2 | PIK3CA | cell-free assay | competition with immobilised ligand | 3 µM |  | 73%

Some of these lines once more:
SMILES | target | read-out | method | tested at | reference | remaining binding
CNC1C[S+]2CC[S+]3CC[S+](C1)[Ru-4]321([N]=C=S)[n]2c3ccc(OC)cc3c3c4c(c5cc(F)c[n+]1c5c32)C(=O)NC4=O (stereo not drawn) | Phosphatidylinositol 4,5-bisphosphate 3-kinase catalytic subunit alpha isoform (PIK3CA, Homo sapiens, UniProt P42336, M1043I) |  | KinomeScan | 0.1 µM | untreated | 77%
C=CC(=O)N1CCc2ccc(-n3c(=O)ccc4cnc5ccc(-c6cnn(C)c6)cc5c43)cc21 | PIK3CA E545A |  | KINOMEscan | 1 µM | DMSO control | 47%
